Measurements collected from several papers.
Lines come from different studies, so protocols differ. Values joined by “and” are separate records of one study, mostly repeats; a detail may differ. ± marks the error that the study gave. No end group written: not given here.
B1: bicyclic; chain AATCHCRRSCYSTEYSYGTCTVMGINHRFCCL (also: bicyclic or more (positions not given here))
Sequence of UniProt Q9UNQ0 (whole entry, looked up): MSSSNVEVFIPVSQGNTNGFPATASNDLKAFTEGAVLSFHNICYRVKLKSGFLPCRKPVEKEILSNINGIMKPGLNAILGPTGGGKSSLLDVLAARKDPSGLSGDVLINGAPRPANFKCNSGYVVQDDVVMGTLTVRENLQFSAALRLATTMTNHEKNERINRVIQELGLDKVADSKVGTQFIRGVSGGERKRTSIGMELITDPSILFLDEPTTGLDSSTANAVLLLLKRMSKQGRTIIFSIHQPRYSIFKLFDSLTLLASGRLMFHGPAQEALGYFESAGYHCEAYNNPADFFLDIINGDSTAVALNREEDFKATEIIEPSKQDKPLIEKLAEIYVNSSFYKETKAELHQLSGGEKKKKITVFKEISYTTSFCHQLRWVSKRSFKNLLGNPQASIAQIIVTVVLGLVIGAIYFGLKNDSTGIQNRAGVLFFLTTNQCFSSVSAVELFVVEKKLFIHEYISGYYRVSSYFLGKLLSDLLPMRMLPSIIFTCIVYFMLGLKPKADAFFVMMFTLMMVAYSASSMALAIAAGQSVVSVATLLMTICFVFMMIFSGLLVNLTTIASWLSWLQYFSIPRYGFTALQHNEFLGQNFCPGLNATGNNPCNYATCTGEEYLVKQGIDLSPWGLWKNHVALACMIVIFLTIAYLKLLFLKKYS

`FNA / CGLSGLGVA-NH2 ([18F]FNA-labelled, C-amide)` has a tissue uptake of 0.22 %ID/g (ex vivo gamma counting; peptide, healthy mouse, pancreas; 60 min post injection).
`Rilpivirine docusate` gave a kinetic solubility of roughly 300 mg/mL (Capryol 90; mean of three).
The binding intensity of `EKPIDSETKM` is reported as -0.205 (human MAGI1-3/6 PDZ construct (MBP fusion); automated holdup; peptide, purified PDZ protein; concentration not given, unit not given; reference: biotin control resin, higher = stronger binding).
`LVHYTHCGSLGV` gave a body weight of 23.4 g and 21.3 g and 22.2 g (Epstein-Barr virus; peptide, EBV-infected humanized B-NDG mice; 20 mg/kg, day 42).
For `QDEKVKESYV`, the binding intensity was 0.768 (human MAGI1-3/6 PDZ construct (MBP fusion); automated holdup; peptide, purified PDZ protein; concentration not given, unit not given; reference: biotin control resin, higher = stronger binding).
The uptake rate of `Lucifer yellow` is reported as 225 ± 13.8 pmol/min/mg (Broad substrate specificity ATP-binding cassette transporter ABCG2 (ABCG2, Homo sapiens, UniProt Q9UNQ0); substrate; added: ATP).
For `caspofungin`, the potassium was 3.9 mmol/L (adult ICU patients, mITT, serum; dose not given, Baseline).
The selectivity ratio of `MTVCNASQRQAHAQATAVSL` is reported as 0.67 ± 0.31 (H2347; phage binding; peptide; reference: targeting over control phage).
`B1`: “sedimentation coefficient S20,w” 0.798 S (sedimentation velocity AUC; 10 mM sodium phosphate; 40 µM, pH 7.4, 20 °C).
The stability time of `Teicoplanin` is reported as no more than 7 days (human serum QC samples; 2-6 °C).
`regorafenib N-β-glucuronide` — result for “long-term stability accuracy”: 101% (mouse plasma; 75 ng/mL, 6 months, -80 °C).

A few entries again:
For `QDEKVKESYV`, the binding intensity was 0.768 (human MAGI1-3/6 PDZ construct (MBP fusion); automated holdup; peptide, purified PDZ protein; concentration not given, unit not given; reference: biotin control resin, higher = stronger binding).
